Measurements pooled from the literature.
Every numbered part comes from another study and shows a few of its results, in no order. Values joined by “and” are separate records of one study, mostly repeats; a detail may differ.
Chain of UniProt P17106 (whole entry, looked up): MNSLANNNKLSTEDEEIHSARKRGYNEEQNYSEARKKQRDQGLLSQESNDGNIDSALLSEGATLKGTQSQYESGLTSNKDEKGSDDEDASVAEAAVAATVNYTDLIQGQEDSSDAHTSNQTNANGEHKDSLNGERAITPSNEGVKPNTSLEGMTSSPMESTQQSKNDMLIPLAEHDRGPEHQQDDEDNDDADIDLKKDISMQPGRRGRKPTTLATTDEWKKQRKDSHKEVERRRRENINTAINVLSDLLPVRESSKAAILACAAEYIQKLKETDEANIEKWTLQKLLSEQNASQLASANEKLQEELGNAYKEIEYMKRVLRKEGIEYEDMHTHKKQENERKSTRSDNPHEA

Study 1 — Molecule: meglumine antimoniate; organism: Leishmania infantum chagasi; method: qPCR; host: golden hamster chronic infection; route: intraperitoneal; dose: 50 mg/kg/day; time: 10 days; baseline: microglobulin
For refers to: IL17 mRNA; spleen: delta Ct read 12.7 cycles and 12.4 cycles and 11.5 cycles and 14 cycles and 13.4 cycles and 12.1 cycles.
It gave 5.38 cycles and 5.69 cycles and 6.68 cycles and 6.46 cycles and 4.87 cycles and 5.91 cycles for delta Ct (refers to: TNF mRNA; spleen).
For refers to: TGF-β mRNA; spleen: delta Ct read 2.02 cycles and 2.46 cycles and 1.94 cycles and 1.05 cycles and 2.42 cycles and 1.65 cycles.
The delta Ct was 8.58 cycles and 8.32 cycles and 8.78 cycles and 8.04 cycles and 7.11 cycles and 8.05 cycles (refers to: IL10 mRNA; spleen).
The delta Ct was 8.05 cycles and 8.72 cycles and 8.62 cycles and 9.75 cycles and 8.68 cycles and 9.23 cycles (refers to: TNF mRNA; liver).

Study 2 — effect on: binding; method: radioligand binding; tested at: 10 µM
Target: Sodium-dependent serotonin transporter (SLC6A4, Homo sapiens, UniProt P31645)
With Nc1c(C(=O)NCc2ccc(C(=O)NCCCC3CCCCC3)cc2)cnn1-c1ccccc1 the inhibition was 7.75%.
With COc1cc(-c2cn(C3CCc4ccccc4N(CC(F)(F)F)C3=O)nn2)ccc1-n1ccc(C)n1 (centres unmarked) the inhibition was 90.6%.
With CN(C)C(=O)Cn1cc(-c2nc([C@@](C)(c3ccc(-c4cnc(N)nc4)cc3)C3CC3)no2)cn1 the inhibition was 6.28%.
With CN1CCN(C(=O)C(C)(C)c2ccc(C(=O)Nc3cn4cc(-c5ccncc5)ccc4n3)cc2)CC1 the inhibition was -3.55%.
With O=C(Nc1cccnn1)N1CC(CC=Cc2cncc(Oc3ccc(C(F)(F)F)cn3)n2)C1 the inhibition was 32.7%.
With CNC(=O)Nc1ccc2c(c1)[C@]1(CC2)OC(=O)N(CC(=O)N(Cc2ccc(F)cc2)[C@@H](C)C(F)(F)F)C1=O the inhibition was 31%.
CC(C)CC(=O)N1CCc2nc(-c3ccc(Br)cc3)nc(N(C)Cc3ccccc3)c2C1 gave an inhibition of -16.7%.
The inhibition of CC(=O)Nc1nc(CN2CCC[C@H](Cc3cc(C)nc(C)c3)C2)cs1 is reported as 52.3%.
Cc1nc(N2CC[C@@H](O)C2)ncc1-c1cc(C(F)(F)F)cc2[nH]ncc12 gave an inhibition of -6.93%.
COCCc1ccc(-c2c(C)nc3c(N4CCOCC4)ccnn23)cn1 has an inhibition of 0.57%.
For Cc1c(NC(=O)c2cc(C(N)=O)nc3cc(F)ccc23)c(C(F)(F)F)nn1Cc1ccc(C(C)(C)C)cc1, the inhibition was -3.13%.
The inhibition of CS(=O)(=O)NCC[C@H](NC(=O)c1cncc2c1cnn2-c1ccc(F)cc1)c1ccnc(S(C)(=O)=O)c1 is reported as -7.52%.
CN1C(=O)[C@@H](N2CCc3c(nn(Cc4ccccc4)c3Br)C2=O)COc2ccccc21 has an inhibition of 22.6%.
The inhibition of O=C(Nc1ccc(-n2nc(-c3cccnc3)cc2C(F)(F)F)cn1)c1ccc(-c2ccccc2)c(F)c1 is reported as 9.16%.
C[C@@H]1CN(c2cc(-c3nn(C)c4ccc(OC5(C)CC5)cc34)ncn2)C[C@H](C)O1 gave an inhibition of -3.49%.
CC(=O)c1c(NS(C)(=O)=O)c2cc(-c3ccc(Cl)cc3)c(-c3ccc(Cl)cc3Cl)nc2n(C)c1=O gave an inhibition of -18.6%.
For CN([C@@H]1CCc2c(CC(=O)O)c3cc(S(C)(=O)=O)ccc3n2C1)S(=O)(=O)c1ccc(F)cc1, the inhibition was 5.16%.
Cc1c[nH]c2nccc(Oc3c(F)cc(Nc4cc(Cl)nc(N)n4)cc3F)c12 gave an inhibition of 2.1%.
With O[C@]1(C(F)(F)F)CCCC[C@H]1Nc1ccc(F)cc1 the inhibition was -0.01%.

Study 3 — effect on: peptide-MHC binding; form: peptide; tested at: concentration not given
Target: HLA class I histocompatibility antigen, A alpha chain, allele A*80:01 (Homo sapiens, UniProt P04439)
Under binding, `AARISSCLK` is recorded as “inactive”.
For `SSLLWGFYL`, binding read “inactive”.
`IQAVFGFSL`: binding “inactive”.
`FLAFFSNGV`: binding “inactive”.
Under binding, `VSEKYTDMY` is recorded as “inactive”.
`RIYDPLWFQ` — result for binding: “inactive”.
Under binding, `EVRLATMLF` is recorded as “inactive”.
Under binding, `LPYPVLLKI` is recorded as “inactive”.

Single results of other studies
CNC(=O)C(C#N)(Cc1cc(Cl)cc2c1OCOC2)Cc1cc(Cl)cc2c1OCOC2 gave a viability of 101% (HEK-293T-ACE2-TMPRSS2; cell count; 10 µM).
O=C1CCC(N2Cc3c(ccc4c3OCC43CCN(Cc4ccccc4)CC3)C2=O)C(=O)N1 (centres unmarked) gave an MRT(0-inf) of 1.45 h and 2.32 h (male ICR mice, plasma; intravenous, 1.0 mg/kg).
The viability of CCN1CC2(COC)CCC(OC)C34C5CC6(O)C(OC)CC(OC(C)=O)(C5C6C(=O)c5ccc(OC)cc5)C(C(OC)C23)C14 (centres unmarked) is reported as 95% (A-375; 100 µM, 36 h).
CCCNC(=O)C1CCCN1C(=O)c1ccc(NC(=O)C(C)(C)C)cc1 (centres unmarked) gave a viability of 87% (HEK-293T-ACE2-TMPRSS2; cell count; 10 µM).
With C[C@@H]1C[C@@H]([C@H](O)CC2CC(=O)NC(=O)C2)C(=O)[C@@H](C)C1 the viability was 47.4% (A-375; 100 µM, 36 h).
With `TGTACGAAGCTATATCACCCATATATAGTAGTTAGGGTCTTGATTCGCTTGACGCTGCTG` the fluorescence intensity was 518 a.u. (Centromere-binding protein 1, full length, N-terminal tag (CBF1, Saccharomyces cerevisiae, UniProt P17106, residues 1-351); protein-binding microarray; double-stranded DNA, one strand shown, in vitro; 0.8 µM, whole 60-bp probe, no competitor; higher = stronger binding).
